Published values of several laboratories.
Each numbered part is a random draw from the data of one study; scales do not carry over between parts.

Set 1
Target: Histone acetyltransferase KAT6A, both winged helices, GST fusion (KAT6A, Homo sapiens, UniProt Q92794, residues 1-181)
Method: protein binding microarray
Form: double-stranded DNA, one strand shown
Matrix: in vitro
Tested at: not given
Setting: 8-mer, flanks averaged, mean of 2 arrays, mostly near background
Relative to: not given
Direction: higher = stronger binding
Endpoint: E-score
Target sequence (chain): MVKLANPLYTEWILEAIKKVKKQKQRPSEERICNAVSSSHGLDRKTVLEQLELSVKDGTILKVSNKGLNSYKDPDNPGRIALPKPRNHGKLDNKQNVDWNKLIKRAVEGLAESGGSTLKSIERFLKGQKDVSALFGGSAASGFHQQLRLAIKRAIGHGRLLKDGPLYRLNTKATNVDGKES
CAATAGAA: -0.0776
CGATCGAG: 0.138
CCCTCCGC: 0.106
CACTGTGG: -0.149
CAATATCC: -0.0237
CGCGGAAA: 0.354
ACCGTTAC: 0.0607
CCCACCAA: -0.234
GCATTACA: -0.0531

Set 2
Target: Max-binding protein MNT, bHLH-zipper, MAX partner unstated (MNT, Homo sapiens, UniProt Q99583, residues 220-300)
Method: protein-binding microarray
Form: double-stranded DNA, one strand shown
Matrix: in vitro
Tested at: not given
Setting: k-mer, scored over probes, only values ≥0.25
Direction: higher = stronger binding
Endpoint: E-score
Construct (chain): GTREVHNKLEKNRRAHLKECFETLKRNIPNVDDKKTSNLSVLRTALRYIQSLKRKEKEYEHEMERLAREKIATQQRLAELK
CGTGTGCC: 0.33
CACGCCTC: 0.339
CATTGCCC: 0.257
CCACGCGC: 0.433
CTCGTGGC: 0.43

Set 3
Target: Interferon regulatory factor 3, full length, phosphomimetic (IRF3, Homo sapiens, UniProt Q14653, residues 1-427, S386D/S396D/S398D/S402D/T404D/S405D)
Method: protein-binding microarray
Form: double-stranded DNA, one strand shown
Matrix: in vitro
Tested at: 2540 nM top
Setting: 60-bp whole probe
Together with: salmon DNA 0.4 mg/ml
Relative to: random background probes
Direction: higher = stronger binding
Endpoint: fitted relative affinity
All sequences stand within: GCCTAGCAC … GTCTTGATTCGCTTGACGCTGCTG
Construct (chain): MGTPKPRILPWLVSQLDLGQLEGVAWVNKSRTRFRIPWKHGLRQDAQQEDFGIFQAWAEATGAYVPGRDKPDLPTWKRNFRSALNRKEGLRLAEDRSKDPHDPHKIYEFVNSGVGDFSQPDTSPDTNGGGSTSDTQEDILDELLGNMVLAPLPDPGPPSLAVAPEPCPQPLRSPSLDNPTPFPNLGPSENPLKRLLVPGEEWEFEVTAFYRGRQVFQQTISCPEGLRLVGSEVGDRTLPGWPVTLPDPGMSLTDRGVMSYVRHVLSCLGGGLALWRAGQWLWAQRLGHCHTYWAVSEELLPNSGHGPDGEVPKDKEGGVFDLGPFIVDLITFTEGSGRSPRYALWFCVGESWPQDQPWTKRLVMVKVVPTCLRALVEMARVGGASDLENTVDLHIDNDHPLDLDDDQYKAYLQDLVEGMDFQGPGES
TTAGGTATCGGTTTCGCTTAGTGCTAG: 7.15 z-score
TTAGGACTGGACACTGAGTTAGTGCTA: -0.653 z-score
TTAGCTTTCGGGTATCGATTAGTGCTA: 1.75 z-score
TTAGAACTGAGTTTAGATTAGTGCTAG: -0.395 z-score
TCAAGCCTAAGGTTTAGGACTGTGCTA: -0.821 z-score
GTAGGTATCGACTTTCGGTTAGTGCTA: 2.03 z-score

Further values, each from its own experiment
PhoQ, residues 284 288 289 292 302 303 TLASMF  fold induction (PhoP, residues 12 14 15 18 19 LWHVM (Escherichia coli, UniProt P23836); Sort-seq, measured: YFP reporter; E. coli; PhoQ-PhoP variant library, together with: 10 µM Mg2+; relative to: high Mg2+ state, higher = stronger signaling): 12.9

A few entries again (set 2):
CGTGTGCC: 0.33
CACGCCTC: 0.339
CCACGCGC: 0.433
